Measurements of several laboratories.
Numbered parts are unrelated; each lists some results of a single study.
UniProt Q08881, sequence (whole entry, looked up): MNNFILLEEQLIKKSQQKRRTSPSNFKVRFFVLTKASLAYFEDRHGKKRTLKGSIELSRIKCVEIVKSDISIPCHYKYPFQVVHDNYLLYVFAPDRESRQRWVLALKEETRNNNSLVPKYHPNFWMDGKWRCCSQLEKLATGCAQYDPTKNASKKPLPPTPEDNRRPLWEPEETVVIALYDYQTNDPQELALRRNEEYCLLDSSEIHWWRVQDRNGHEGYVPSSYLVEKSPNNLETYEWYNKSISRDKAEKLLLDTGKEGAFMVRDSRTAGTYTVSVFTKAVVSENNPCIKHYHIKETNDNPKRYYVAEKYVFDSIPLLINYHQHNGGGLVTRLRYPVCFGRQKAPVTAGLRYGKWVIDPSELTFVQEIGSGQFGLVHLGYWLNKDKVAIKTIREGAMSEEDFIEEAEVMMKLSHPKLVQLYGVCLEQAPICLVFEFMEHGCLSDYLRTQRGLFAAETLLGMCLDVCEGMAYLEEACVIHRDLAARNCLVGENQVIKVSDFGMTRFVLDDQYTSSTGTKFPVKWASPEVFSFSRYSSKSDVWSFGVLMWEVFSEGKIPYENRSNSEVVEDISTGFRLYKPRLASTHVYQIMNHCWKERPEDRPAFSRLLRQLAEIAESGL
UniProt P51817, sequence (whole entry, looked up): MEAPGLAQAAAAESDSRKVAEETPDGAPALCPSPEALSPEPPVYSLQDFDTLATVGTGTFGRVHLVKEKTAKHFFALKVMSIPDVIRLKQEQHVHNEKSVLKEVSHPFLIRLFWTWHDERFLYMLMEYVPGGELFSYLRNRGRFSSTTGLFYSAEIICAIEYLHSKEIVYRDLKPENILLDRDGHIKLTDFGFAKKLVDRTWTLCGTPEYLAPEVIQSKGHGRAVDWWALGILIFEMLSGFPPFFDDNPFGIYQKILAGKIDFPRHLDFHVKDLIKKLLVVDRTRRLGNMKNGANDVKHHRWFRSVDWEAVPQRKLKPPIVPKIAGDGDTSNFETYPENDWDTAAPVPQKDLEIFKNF
UniProt P35916, sequence (whole entry, looked up): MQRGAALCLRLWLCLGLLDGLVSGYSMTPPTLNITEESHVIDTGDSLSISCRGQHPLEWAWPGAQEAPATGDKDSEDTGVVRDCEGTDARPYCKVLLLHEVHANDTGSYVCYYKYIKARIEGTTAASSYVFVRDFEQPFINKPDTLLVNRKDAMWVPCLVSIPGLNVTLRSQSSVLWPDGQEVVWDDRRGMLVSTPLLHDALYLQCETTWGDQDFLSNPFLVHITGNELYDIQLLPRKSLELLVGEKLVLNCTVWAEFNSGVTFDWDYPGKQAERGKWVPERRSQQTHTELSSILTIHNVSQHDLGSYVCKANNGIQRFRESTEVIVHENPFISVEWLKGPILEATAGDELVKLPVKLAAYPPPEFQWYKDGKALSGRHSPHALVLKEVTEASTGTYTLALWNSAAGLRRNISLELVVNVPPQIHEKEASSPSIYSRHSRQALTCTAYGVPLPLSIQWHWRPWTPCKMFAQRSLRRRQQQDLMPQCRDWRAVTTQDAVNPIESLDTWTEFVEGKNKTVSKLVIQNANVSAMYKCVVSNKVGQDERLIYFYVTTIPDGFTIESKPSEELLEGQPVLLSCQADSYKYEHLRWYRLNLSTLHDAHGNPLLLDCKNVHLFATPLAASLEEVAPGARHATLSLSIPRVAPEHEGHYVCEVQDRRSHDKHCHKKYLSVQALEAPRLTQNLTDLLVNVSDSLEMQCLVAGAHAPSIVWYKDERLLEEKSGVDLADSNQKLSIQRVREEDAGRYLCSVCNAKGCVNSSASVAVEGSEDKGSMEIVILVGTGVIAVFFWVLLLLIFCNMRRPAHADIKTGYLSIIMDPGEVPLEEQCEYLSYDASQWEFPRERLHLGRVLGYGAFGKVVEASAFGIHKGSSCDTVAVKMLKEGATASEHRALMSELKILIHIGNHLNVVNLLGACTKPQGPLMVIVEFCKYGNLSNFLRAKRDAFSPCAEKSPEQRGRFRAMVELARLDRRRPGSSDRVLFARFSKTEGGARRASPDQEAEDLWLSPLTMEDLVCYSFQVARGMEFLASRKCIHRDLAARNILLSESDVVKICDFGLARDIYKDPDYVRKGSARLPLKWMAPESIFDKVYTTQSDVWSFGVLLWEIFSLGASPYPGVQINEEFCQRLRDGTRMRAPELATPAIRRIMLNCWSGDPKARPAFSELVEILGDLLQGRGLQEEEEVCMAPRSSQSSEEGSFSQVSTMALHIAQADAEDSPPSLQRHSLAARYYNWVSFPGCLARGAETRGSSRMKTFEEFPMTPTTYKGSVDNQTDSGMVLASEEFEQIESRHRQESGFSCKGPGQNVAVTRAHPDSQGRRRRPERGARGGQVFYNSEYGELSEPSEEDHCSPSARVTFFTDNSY
UniProt Q96RG2, sequence (whole entry, looked up): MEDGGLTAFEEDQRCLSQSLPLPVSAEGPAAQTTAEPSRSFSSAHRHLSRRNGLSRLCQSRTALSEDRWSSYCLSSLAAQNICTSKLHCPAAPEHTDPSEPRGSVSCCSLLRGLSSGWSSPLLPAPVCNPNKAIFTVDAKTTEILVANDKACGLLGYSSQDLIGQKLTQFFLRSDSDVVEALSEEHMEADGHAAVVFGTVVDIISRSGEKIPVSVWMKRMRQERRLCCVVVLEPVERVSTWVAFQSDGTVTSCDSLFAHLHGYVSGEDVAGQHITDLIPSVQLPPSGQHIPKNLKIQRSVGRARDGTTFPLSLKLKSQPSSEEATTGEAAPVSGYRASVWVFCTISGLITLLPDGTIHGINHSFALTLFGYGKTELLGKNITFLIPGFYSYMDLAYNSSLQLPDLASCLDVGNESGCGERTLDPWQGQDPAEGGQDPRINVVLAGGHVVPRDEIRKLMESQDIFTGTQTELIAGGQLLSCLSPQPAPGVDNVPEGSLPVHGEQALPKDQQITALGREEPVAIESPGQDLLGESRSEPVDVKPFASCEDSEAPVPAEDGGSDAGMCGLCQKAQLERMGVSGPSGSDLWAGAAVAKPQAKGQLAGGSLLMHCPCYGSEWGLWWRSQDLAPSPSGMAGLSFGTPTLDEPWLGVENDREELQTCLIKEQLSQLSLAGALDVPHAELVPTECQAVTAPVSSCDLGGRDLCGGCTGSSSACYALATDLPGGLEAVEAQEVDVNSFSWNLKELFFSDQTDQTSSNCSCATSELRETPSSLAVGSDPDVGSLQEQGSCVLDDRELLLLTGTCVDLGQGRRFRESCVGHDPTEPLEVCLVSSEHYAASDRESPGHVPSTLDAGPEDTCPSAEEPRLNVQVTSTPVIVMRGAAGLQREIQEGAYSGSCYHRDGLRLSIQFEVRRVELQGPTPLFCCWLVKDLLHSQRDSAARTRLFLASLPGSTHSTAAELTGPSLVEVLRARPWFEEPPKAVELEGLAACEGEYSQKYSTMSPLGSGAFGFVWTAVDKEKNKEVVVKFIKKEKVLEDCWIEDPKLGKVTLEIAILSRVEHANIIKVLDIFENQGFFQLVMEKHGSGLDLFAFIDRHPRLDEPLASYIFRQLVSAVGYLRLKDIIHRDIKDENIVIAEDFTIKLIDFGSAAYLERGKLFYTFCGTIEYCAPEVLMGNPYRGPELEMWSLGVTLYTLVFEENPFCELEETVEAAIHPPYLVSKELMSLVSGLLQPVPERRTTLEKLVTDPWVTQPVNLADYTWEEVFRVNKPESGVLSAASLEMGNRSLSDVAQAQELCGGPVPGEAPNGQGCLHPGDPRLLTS
UniProt Q9H2K8, sequence (whole entry, looked up): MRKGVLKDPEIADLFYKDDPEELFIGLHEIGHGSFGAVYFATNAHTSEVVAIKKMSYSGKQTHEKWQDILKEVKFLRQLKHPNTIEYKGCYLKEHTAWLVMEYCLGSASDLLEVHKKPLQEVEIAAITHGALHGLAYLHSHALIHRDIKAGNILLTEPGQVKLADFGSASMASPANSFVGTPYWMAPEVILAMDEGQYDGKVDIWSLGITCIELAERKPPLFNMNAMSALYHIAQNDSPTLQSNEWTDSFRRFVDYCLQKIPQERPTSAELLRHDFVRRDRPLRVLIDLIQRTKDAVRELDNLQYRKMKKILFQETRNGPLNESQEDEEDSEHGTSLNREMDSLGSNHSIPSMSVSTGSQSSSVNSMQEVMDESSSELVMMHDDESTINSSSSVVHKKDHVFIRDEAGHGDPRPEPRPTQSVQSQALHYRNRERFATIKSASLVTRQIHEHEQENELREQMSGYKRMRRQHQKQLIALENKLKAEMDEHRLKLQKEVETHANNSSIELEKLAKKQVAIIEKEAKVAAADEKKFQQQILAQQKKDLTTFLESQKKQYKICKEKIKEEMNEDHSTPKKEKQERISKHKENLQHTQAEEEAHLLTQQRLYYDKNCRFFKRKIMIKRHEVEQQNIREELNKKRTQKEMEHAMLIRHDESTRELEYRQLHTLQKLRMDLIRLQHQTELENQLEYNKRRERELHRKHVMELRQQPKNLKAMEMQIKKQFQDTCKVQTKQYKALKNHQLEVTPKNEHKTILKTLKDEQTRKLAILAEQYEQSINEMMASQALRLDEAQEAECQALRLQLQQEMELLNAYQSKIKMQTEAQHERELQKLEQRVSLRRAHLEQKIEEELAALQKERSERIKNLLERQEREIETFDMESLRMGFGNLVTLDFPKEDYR

Series 1
Target: Bromodomain-containing protein 4, BD1 (BRD4, Homo sapiens, UniProt O60885)
Concentration: 50 µM
| Compound | inhibition [%] |
| --- | --- |
| C[C@H](Nc1ncnc2nc[nH]c12)c1cc2cccc(Cl)c2c(=O)n1-c1ccccc1 | 5.45 |
| CCN(CCO)CCCOc1ccc2c(Nc3cc(CC(=O)Nc4cccc(F)c4)[nH]n3)ncnc2c1 | 27.9 |
| COc1cc2nccc(Oc3ccc(NC(=O)C4(C(=O)Nc5ccc(F)cc5)CC4)cc3)c2cc1OC | 27.8 |
| NC(=O)c1ccc(-c2nc(-c3ccc4c(c3)OCO4)c(-c3ccccn3)[nH]2)cc1 | 44.6 |
| CCN1CCN(c2ccc(Nc3cc(N(C)C(=O)Nc4c(Cl)c(OC)cc(OC)c4Cl)ncn3)cc2)CC1 | 10.1 |
| CC(C)(C)c1nc(-c2cccc(NS(=O)(=O)c3c(F)cccc3F)c2F)c(-c2ccnc(N)n2)s1 | 15.3 |
| Oc1c2ccccc2c2c3c(cccc13)N=N2 | 7.6 |
| COc1cc2nccc(Oc3ccc(NC(=O)NC4CC4)c(Cl)c3)c2cc1C(N)=O | 1.1 |
| CN1CCN(c2ccc3nc(-c4c(N)c5c(F)cccc5[nH]c4=O)[nH]c3c2)CC1 | 69.2 |
| C#Cc1cccc(Nc2ncnc3cc4c(cc23)OCCOCCOCCO4)c1 | 1.05 |
| Cc1nc(Nc2ncc(C(=O)Nc3c(C)cccc3Cl)s2)cc(N2CCN(CCO)CC2)n1 | 16.6 |
| Nc1cc(C(F)(F)F)c(-c2cc(N3CCOCC3)nc(N3CCOCC3)n2)cn1 | 24.9 |
| COc1cc(OC)c(/C=C/S(=O)(=O)Cc2ccc(OC)c(NCC(=O)O)c2)c(OC)c1 | 9.05 |
| C[S+]([O-])c1ccc(-c2nc(-c3ccncc3)c(-c3ccc(F)cc3)[nH]2)cc1 (stereo not shown) | 44.9 |
| Cc1c(OCC(F)(F)F)ccnc1C[S+]([O-])c1nc2ccccc2[nH]1 (stereo not shown) | 1.4 |

Series 2
SMILES: O=Nc1c(-c2c(O)[nH]c3cc(Br)ccc23)[nH]c2ccccc12
Effect on: enzyme activity
Mode: inhibitor
Concentration: 0.5 µM
Relative to: control
| target | remaining activity [%] |
| --- | --- |
| ITK (Homo sapiens, UniProt Q08881) | 46.6 |
| STK25 (Homo sapiens, UniProt O00506) | 96.3 |
| LIM domain kinase 1 (LIMK1, Homo sapiens, UniProt P53667) | 51.7 |
| FGR (Homo sapiens, UniProt P09769) | 2.99 |
| NEK11 (Homo sapiens, UniProt Q8NG66) | 118 |
| AKT1 (Homo sapiens, UniProt P31749) | 97.7 |
| FER (Homo sapiens, UniProt P16591) | 69.8 |
| ALK (Homo sapiens, UniProt Q9UM73) | 88.5 |
| FLT4 (Homo sapiens, UniProt P35916) | 50.8 |
| TAOK3 (Homo sapiens, UniProt Q9H2K8) | 56.9 |
| PKN1 (Homo sapiens, UniProt Q16512) | 82.2 |
| HIPK1 (Homo sapiens, UniProt Q86Z02) | 103 |
| Cyclin-dependent kinase 3, with cyclin E (CDK3, Homo sapiens, UniProt Q00526) | 25.2 |
| MATK (Homo sapiens, UniProt P42679) | 99.6 |
| FYN (Homo sapiens, UniProt P06241) | 5.05 |
| NLK (Homo sapiens, UniProt Q9UBE8) | 101 |
| Insulin receptor (INSR, Homo sapiens, UniProt P06213) | 92.5 |
| PASK (Homo sapiens, UniProt Q96RG2) | 97.9 |
| CDC42BPA (Homo sapiens, UniProt Q5VT25) | 94 |
| MARK3 (Homo sapiens, UniProt P27448) | 67 |
| SRC (Homo sapiens, UniProt P12931) | 7.64 |
| PRKX (Homo sapiens, UniProt P51817) | 92.1 |

Series 3
SMILES: C[C@H](c1cccc(C#N)c1)n1cc(Cl)cc(C(N)=O)c1=N
Effect on: cell-free assay
Method: competition with immobilised ligand
Concentration: 1 µM
| target | remaining binding [%] |
| --- | --- |
| NEK7 (Homo sapiens, UniProt Q8TDX7) | 97 |
| TNK1 (Homo sapiens, UniProt Q13470) | 77 |
| Tyrosine-protein kinase ABL1, phosphorylated (ABL1, Homo sapiens, UniProt P00519) | 77 |
| TNNI3K (Homo sapiens, UniProt Q59H18) | 92 |
| GAK (Homo sapiens, UniProt O14976) | 100 |
| TGFBR2 (Homo sapiens, UniProt P37173) | 100 |
| LYN (Homo sapiens, UniProt P07948) | 81 |
| LRRK2 (Homo sapiens, UniProt Q5S007) | 100 |
| DCLK1 (Homo sapiens, UniProt O15075) | 76 |
| MAPK6 (Homo sapiens, UniProt Q16659) | 0 |
| PNCK (Homo sapiens, UniProt Q6P2M8) | 89 |
| Receptor-type tyrosine-protein kinase FLT3, autoinhibited (FLT3, Homo sapiens, UniProt P36888) | 90 |
| MAPK9 (Homo sapiens, UniProt P45984) | 96 |
| RAF1 (Homo sapiens, UniProt P04049) | 100 |
| EPHB4 (Homo sapiens, UniProt P54760) | 89 |
| CIT (Homo sapiens, UniProt O14578) | 96 |
| STK4 (Homo sapiens, UniProt Q13043) | 100 |
| DDR1 (Homo sapiens, UniProt Q08345) | 98 |

Series 4
Target: Calcium/calmodulin-dependent protein kinase type II subunit alpha (CAMK2A, Homo sapiens, UniProt Q9UQM7)
UniProt Q9UQM7, sequence (whole entry, looked up): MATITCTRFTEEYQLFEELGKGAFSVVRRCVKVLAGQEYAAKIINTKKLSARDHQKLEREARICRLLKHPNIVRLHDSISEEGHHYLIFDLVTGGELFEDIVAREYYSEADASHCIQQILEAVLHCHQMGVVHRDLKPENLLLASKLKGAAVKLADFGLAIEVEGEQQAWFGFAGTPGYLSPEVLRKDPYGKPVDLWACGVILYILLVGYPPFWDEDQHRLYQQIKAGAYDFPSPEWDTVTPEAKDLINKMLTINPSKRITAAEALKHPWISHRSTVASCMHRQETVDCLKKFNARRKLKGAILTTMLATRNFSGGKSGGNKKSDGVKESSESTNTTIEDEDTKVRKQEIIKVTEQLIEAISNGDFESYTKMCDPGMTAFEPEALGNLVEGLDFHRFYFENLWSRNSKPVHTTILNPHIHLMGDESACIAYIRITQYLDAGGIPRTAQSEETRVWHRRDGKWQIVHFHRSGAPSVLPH
Effect on: enzyme activity
Mode: inhibitor
Concentration: 10 µM
| SMILES | inhibition |
| --- | --- |
| Cc1ccc(C(=O)c2cc(O)c(O)c([N+](=O)[O-])c2)cc1 | 0% |
| COc1ccccc1OCC(O)COC(N)=O (stereo not shown) | -1% |
| C=Cc1c(C)c2cc3[nH]c(cc4nc(cc5nc(cc1[nH]2)C(C)=C5CCC(=O)O)C(CCC(=O)O)=C4C)c(C)c3C=C | -9% |
| C[C@@H]1O[C@@H](O[C@H]2C(=O)c3c(O)cc(O)cc3O[C@@H]2c2ccc(O)c(O)c2)[C@H](O)[C@H](O)[C@H]1O | -11% |
| COc1cc(/C=C/C(=O)N2CCC=CC2=O)cc(OC)c1OC | 3% |
| COC(=O)/C=C/c1ccc(O)cc1 | -14% |
| O=C(N/N=C/c1ccc([N+](=O)[O-])o1)c1ccc(O)cc1 | -9% |
| CN(C/C=C/c1ccccc1)Cc1cccc2ccccc12 | 1% |
| COC(=O)c1ccco1 | -31% |
| O=C(O)c1cc(=O)c2ccccc2o1 | -5% |
| CSCC[C@H](NC(=O)[C@H](Cc1ccccc1)NC(=O)[C@H](Cc1cnc[nH]1)NC(=O)CNC(=O)[C@@H](NC(=O)[C@H](C)NC(=O)[C@H](Cc1c[nH]c2ccccc12)NC(=O)[C@H](CCC(N)=O)NC(=O)[C@@H]1CCC(=O)N1)C(C)C)C(N)=O | -12% |
| CN1CC(=O)N2[C@H](c3ccc4c(c3)OCO4)c3[nH]c4ccccc4c3C[C@@H]2C1=O | 0% |
| CC1(C)CCC2=C(O1)c1ccccc1C(=O)C2=O | -2% |
| CCCC(=O)C(=O)O | -20% |
| O=C1C[C@@H](C(=O)O)NC(=O)N1 | -3% |
| O=C(O)c1ccc2ccccc2c1O | -5% |
| O=C(c1ccccc1)c1ccccc1 | 7% |
| NC(CCCC(=O)O)C(=O)O (stereo not shown) | -14% |
| C#C[C@]1(O)CC[C@H]2[C@@H]3CCC4=CC(=O)CC[C@@H]4[C@H]3CC[C@@]21C | -4% |
| CCOC(=O)OC(C)OC1=C(C(=O)Nc2ccccn2)N(C)S(=O)(=O)c2ccccc21 (stereo not shown) | -10% |
| O=C(O[C@@H]1Cc2c(O)cc(O)cc2O[C@@H]1c1cc(=O)c(O)c2c(O)c(O)cc([C@H]3Oc4cc(O)cc(O)c4C[C@H]3O)c2c1)c1cc(O)c(O)c(O)c1 | -151% |

Some of these lines once more (series 4):
| SMILES | inhibition |
| --- | --- |
| CN(C/C=C/c1ccccc1)Cc1cccc2ccccc12 | 1% |
| COC(=O)c1ccco1 | -31% |
| O=C(O)c1cc(=O)c2ccccc2o1 | -5% |
| CSCC[C@H](NC(=O)[C@H](Cc1ccccc1)NC(=O)[C@H](Cc1cnc[nH]1)NC(=O)CNC(=O)[C@@H](NC(=O)[C@H](C)NC(=O)[C@H](Cc1c[nH]c2ccccc12)NC(=O)[C@H](CCC(N)=O)NC(=O)[C@@H]1CCC(=O)N1)C(C)C)C(N)=O | -12% |
| CN1CC(=O)N2[C@H](c3ccc4c(c3)OCO4)c3[nH]c4ccccc4c3C[C@@H]2C1=O | 0% |
| CC1(C)CCC2=C(O1)c1ccccc1C(=O)C2=O | -2% |
| CCCC(=O)C(=O)O | -20% |
| O=C1C[C@@H](C(=O)O)NC(=O)N1 | -3% |
| O=C(O)c1ccc2ccccc2c1O | -5% |
| O=C(c1ccccc1)c1ccccc1 | 7% |
| NC(CCCC(=O)O)C(=O)O (stereo not shown) | -14% |
